Measurements from different studies.
± marks the error that the study gave.
TDP1: Tyrosyl-DNA phosphodiesterase 1 (TDP1, Homo sapiens, UniProt Q9NUW8)
Chain of UniProt Q9NUW8 (whole entry, looked up): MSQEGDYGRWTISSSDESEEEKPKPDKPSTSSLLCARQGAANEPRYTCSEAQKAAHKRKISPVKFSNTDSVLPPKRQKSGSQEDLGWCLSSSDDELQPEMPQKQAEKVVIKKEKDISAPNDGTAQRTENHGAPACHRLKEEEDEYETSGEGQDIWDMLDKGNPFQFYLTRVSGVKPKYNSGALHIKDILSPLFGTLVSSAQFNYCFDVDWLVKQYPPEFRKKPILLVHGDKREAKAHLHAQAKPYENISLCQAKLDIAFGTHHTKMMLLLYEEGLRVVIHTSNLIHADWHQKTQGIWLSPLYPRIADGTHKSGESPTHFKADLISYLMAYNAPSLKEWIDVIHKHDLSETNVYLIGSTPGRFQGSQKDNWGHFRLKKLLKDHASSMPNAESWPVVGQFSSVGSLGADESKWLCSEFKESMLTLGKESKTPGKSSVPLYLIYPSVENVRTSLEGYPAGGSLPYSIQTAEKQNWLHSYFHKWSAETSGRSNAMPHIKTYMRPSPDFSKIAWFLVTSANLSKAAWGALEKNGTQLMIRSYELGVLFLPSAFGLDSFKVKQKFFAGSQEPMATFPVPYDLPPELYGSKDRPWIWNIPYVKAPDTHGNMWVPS

COc1c(C)c(OC(=O)c2ccc3ccccc3c2)c(C)c(O)c1C(=O)/C=C/c1ccccc1
IC50 (normal human liver cell line; cytotoxicity, SRB; 72 h): > 50 µM

NC1=C(Cl)C(=O)c2cccc([N+](=O)[O-])c2C1=O
IC50 (MRC-5; cytotoxicity, MTT; 48 h, 10% FBS): 15.2 ± 0.4 µM

COc1ccc2ncc(F)c(CC[C@@]3(O)CO[C@@H]4[C@@H](NCc5ccc(C)cc5)CO[C@@H]43)c2n1
IC50 (HepG2; cytotoxicity; 24 h): 117 µg/mL

CCCCCCCCCCCC(=O)Oc1c(C)c(OC)c2c(/C=C/c3ccccc3)c(CCCCCCCCCC)c(=O)oc2c1C
IC50 (normal human liver cell line; cytotoxicity, SRB; 72 h): > 50 µM

C[N+](C)(CF)CCO
IC50 (HepG2; cell viability; galactose medium; 24 h, mitochondrial toxicity): > 150 µM

CCCCCCCCCC(=O)Oc1c(C)c(OC)c2c(c1C)OC(=O)C(CCCCCCCC)C2(O)C=Cc1ccccc1 (centres unmarked)
IC50 (normal human liver cell line; cytotoxicity, SRB; 72 h): > 50 µM

O=C1C(Br)=C(Br)C(=O)c2ccccc21
IC50 (MRC-5; cytotoxicity, MTT; 48 h, 10% FBS): 94.5 ± 2.84 µM

COc1ccc2ncc(F)c(C[C@H](O)[C@H]3OC[C@H](NCc4ccc(Cl)c(Cl)c4)CO3)c2c1
IC50 (HepG2; cytotoxicity; 24 h): 54.5 µg/mL

CC(CC=NOCc1ccc(-c2nc3cc(-c4ccccc4)ccn3c2Nc2ccc(C(=O)O)cc2)cc1)c1cn(C)c2ccccc12 (centres unmarked)
inhibition (TDP1; enzyme activity, inhibitor; 100 µM, unpurified compound): 71.7%

COc1ccc2nccc(CC[C@H]3OC[C@H](NC(=O)c4ccc(Cl)cc4)CO3)c2c1
IC50 (HepG2; cytotoxicity; 24 h): 4.41 µg/mL

CN(C)C=C(C=NOCc1ccc(-c2nc3cc(-c4ccccc4)ccn3c2Nc2ccc(C(=O)O)cc2)cc1)c1ccccc1[N+](=O)[O-] (mixture of isomers)
inhibition (TDP1; enzyme activity, inhibitor; 100 µM, unpurified compound): 27%

Repeated from above:
NC1=C(Cl)C(=O)c2cccc([N+](=O)[O-])c2C1=O
IC50 (MRC-5; cytotoxicity, MTT; 48 h, 10% FBS): 15.2 ± 0.4 µM

COc1ccc2ncc(F)c(CC[C@@]3(O)CO[C@@H]4[C@@H](NCc5ccc(C)cc5)CO[C@@H]43)c2n1
IC50 (HepG2; cytotoxicity; 24 h): 117 µg/mL
